{"data": "Measured values from different studies", "note": "Each line is one published result; not all experiments were run side by side. ± marks the error that the study gave."}
{"Structure (SMILES)": "CC/C=C\\C/C=C\\C/C=C\\C/C=C\\C/C=C\\C/C=C\\CCC(=O)Nc1ccn(C2OC(CO)C(O)C2(F)F)c(=O)n1 (stereo not shown)", "tested on": "SF-268", "assay": "cell growth or viability, SRB", "measurement": "GI50", "value": "0.0542 µM"}
{"Structure (SMILES)": "COc1cccc(CNc2nc(NCc3ccccc3)c3ccccc3n2)c1", "tested on": "SW-403", "assay": "cell growth or viability", "conditions": "72 h", "measurement": "GI50", "value": "3 µM"}
{"Structure (SMILES)": "COc1cc(CCC(C)=O)ccc1O", "tested on": "mAb 4-AT4", "assay": "antibody binding, indirect competitive ELISA", "conditions": "added: coating antigen hapten 3-OVA", "measurement": "IC50", "value": "> 4 mg/L"}
{"Structure (SMILES)": "[64Cu+2].c1ccc(CNCc2ccc(CN3CCCN4CCNCCCN(CC4)CC3)cc2)nc1", "tested on": "CXCR4", "test system": "NOD/SCID mouse, U87 and U87-stb-CXCR4 xenografts, kidney", "conditions": "iv, 120 min, ex vivo", "measurement": "tissue uptake", "value": "33.4 ± 3.03 %ID/g"}
{"Structure (SMILES)": "O=Cc1c(O)ccc2ccccc12", "tested on": "HUVEC", "assay": "RNA sequencing, item: PTGS2", "conditions": "75 µM, 24 h", "scale": "reference: DMSO", "measurement": "log2 fold change", "value": 3.55}
{"Structure (SMILES)": "C1=[N+]2CCCC[N+]3=Cc4ccc5[n]4[Au-]23[n]2c1ccc2-c1nc2ccccc2nc1-5.F[P-](F)(F)(F)(F)F", "tested on": "NCI60 human cancer panel", "conditions": "mean of all cell lines", "measurement": "GI50", "value": "7 µM"}
{"Structure (SMILES)": "CC(=C(c1ccc(O)cc1)c1ccc(Cl)cc1)c1ccc(Cl)cc1", "tested on": "SF-268", "assay": "cell growth or viability, SRB", "measurement": "GI50", "value": "0.74 µM"}
{"Structure (SMILES)": "Cc1cc(C)nc(SCC(=O)Nc2ncc(Cc3cccc(OCc4cn(Cc5ccc(C#N)cc5)nn4)c3)s2)n1", "tested on": "HGC-27", "assay": "cell growth or viability, MTS", "measurement": "GI50", "value": "7.85 µM"}
{"Structure (SMILES)": "NS(=O)(=O)Nc1ncnc(OCCOc2ncc(Br)cn2)c1-c1ccc(Br)cc1", "assay": "metabolite formation", "test system": "male Beagle dog, liver microsomes", "conditions": "50 mg/kg daily for 4 weeks", "measurement": "Vmax", "value": "998 ± 51 pmol/min/mg"}
{"Structure (SMILES)": "CCC(=C(c1ccc(Cl)cc1)c1ccc(OCCCN(C)C)cc1)c1ccc(OC)cc1", "tested on": "SF-268", "assay": "cell growth or viability, SRB", "measurement": "GI50", "value": "7.6 µM"}
{"Structure (SMILES)": "COc1cccc2c(NCc3ccccc3)nc(Nc3cccc(F)c3)nc12", "tested on": "SW-403", "assay": "cell growth or viability", "conditions": "72 h", "measurement": "GI50", "value": "4 µM"}
{"Structure (SMILES)": "CCCC(C)NC(=O)C(Nc1ccccc1C(=O)c1ccccc1)c1cn(C)c2ccccc12 (stereo not shown)", "tested on": "SJ-G2", "assay": "cell growth or viability, MTT", "conditions": "72 h", "measurement": "GI50", "value": "6.7 µM"}
{"Structure (SMILES)": "CCN1CCN(Cc2ccc(C(=O)Nc3ccc(C)c(NCc4cnc5[nH]ccc5c4OC)c3)cc2C(F)(F)F)CC1", "tested on": "HCT-116, overexpressing wild type", "assay": "cell proliferation", "conditions": "48 h", "measurement": "GI50", "value": "0.81 µM"}
{"Structure (SMILES)": "CCCCC/C=C/C(=O)CCc1ccc(O)c(OC)c1", "tested on": "mAb 4-AT4", "assay": "antibody binding, indirect competitive ELISA", "conditions": "added: coating antigen hapten 2-OVA", "measurement": "IC50", "value": "> 4 mg/L"}
{"Structure (SMILES)": "Fc1cccc(CNc2nc(NCc3ccccc3)c3ccccc3n2)c1", "tested on": "SW-403", "assay": "cell growth or viability", "conditions": "24 h", "measurement": "GI50", "value": "4.6 µM"}
{"Structure (SMILES)": "Cn1cc(-c2cc(N3CCCCS3(=O)=O)ccc2N[C@H]2CC[C@H](C)CC2)c2cc[nH]c2c1=O (stereo in doubt)", "tested on": "CHL", "assay": "cell growth or viability, CCK-8", "conditions": "72 h", "measurement": "GI50", "value": "1.1 µM"}
{"note": "Some of these lines once more:"}
{"Structure (SMILES)": "COc1cc(CCC(C)=O)ccc1O", "tested on": "mAb 4-AT4", "assay": "antibody binding, indirect competitive ELISA", "conditions": "added: coating antigen hapten 3-OVA", "measurement": "IC50", "value": "> 4 mg/L"}
